Published values pooled from the literature.
Several values in a cell are separate wells, animals, samples, runs or records. ± marks the error that the study gave.

CNC(=O)c1ccc(-c2cnc3ncc(Cc4ccc5ncccc5c4)n3n2)cc1F  Pyrexia dose reduction/interruption (Japanese patients; oral, 400 mg, any grade): 3%
Cc1nc(-c2cnc(NC(C)C)n(C)c2=O)ccc1Oc1ccnc(-c2cnn(C)c2)c1  half-life (Beagle dog, male, plasma; oral, 30 mg/kg, crossover study, mean): 10.5 h
Cl.[2H]C([2H])([2H])CC(=O)c1cnc(NC(=O)C2CC2)cc1Nc1cccc(-c2ncn(C([2H])([2H])[2H])n2)c1OC  Ctrough (human, fasted, multiple dose; oral, 20 mg once daily, liquid formulation, day 7, geometric mean): 13.6 ng/mL
COc1cccc2c(N3CCC(CCP(=O)(O)O)CC3)ncnc12  pyrophosphate level (mouse, breast cancer, serum, tumour, organs; 50 mg/kg, 7 days; baseline: vehicle): no effect
[O]=[Co].[O]=[Co][O][Co]=[O]  haemoglobin (Crl:CD(SD) rat female, blood; oral, 220 mg Co/kg/day, 90 days, repeated dose): 10.1 mmol/L
CC(=O)c1cc(C(=O)N[C@@H](C)Cn2ccc(-c3ccc(C#N)c(Cl)c3)n2)[nH]n1  AUC(0-tlast) (healthy male human, plasma; intravenous infusion, 100 µg 14C-labelled, 15 min infusion, microtracer, geometric mean): 19800 h·pg eq/mL
CCCCC[C@H](O)CC[C@@H]1[C@H]2Cc3cccc(OCC(=O)O)c3C[C@H]2C[C@H]1O  geometric mean Cmax (LC-MS/MS; Japanese PAH patients aged ≥sample A years, plasma; inhaled, 54 µg): 1.1 ng/mL
C=CC(=O)N1CCC[C@@H](n2nc(-c3ccc(Oc4ccccc4)cc3)c3c(N)ncnc32)C1  drug release (dialysis bag; phosphate buffer; 72 h, pH 7.4, 37 °C): 36.1 ± 5.59%
CN(C)c1ccc2c(c1)c(=O)n(-c1ccc(C[C@H](NC(=O)c3c(Cl)cccc3Cl)C(=O)O)cc1)c(=O)n2C  active intrinsic uptake clearance (cynomolgus monkey, hepatocyte suspension; dose not given, scaled in vitro unbound): 268 mL/min/kg
CCO[C@H]1CCN(Cc2c(OC)cc(C)c3[nH]ccc23)[C@H](c2ccc(C(=O)O)cc2)C1  incidence of nasopharyngitis (PNH patients, active haemolysis; oral, 50 mg, 4 weeks, treatment): 0%
C[C@@H](Oc1ccc(S(C)(=O)=O)cc1C(=O)N1C[C@@H]2C[C@]2(c2cc(C(F)(F)F)on2)C1)C(F)(F)F  fraction excreted in urine at steady state (young healthy humans, urine; oral, 25 mg once daily, 0 to 24 h, multiple dosing): 4.92%
C[C@@H]1OC(=O)[C@H](Cc2ccccc2)[C@H]1O  Freundlich coefficient KF (soil adsorption; clay loam soil; pH 7.2, organic carbon 4.4 %): 1.29 mL/g
C[C@@H](Nc1cc(F)cc(F)c1)c1cc(C(=O)N(C)C)cc2c(=O)cc(N3CCOCC3)oc12  AUC(0-12) (human; oral, 120 mg twice daily, vistusertib alone, geometric LSM): 4410 ng·h/mL
COc1cccc(Cl)c1[C@@H]1C[C@H]1NS(=O)(=O)c1ccsc1C(=O)O  DLS scattered light intensity (colloidal aggregate formation, dynamic light scattering; 50 mM potassium phosphate buffer; 200 µM, pH 7.0, 1% DMSO; higher = more aggregation): 2.5e+07 counts/s
O=C(Nc1ccc(OC(F)(F)Cl)cc1)c1cnc(N2CC[C@@H](O)C2)c(-c2ccn[nH]2)c1  amylase increase incidence (human patients; oral, dose not given, dose-finding, any grade; baseline: records): 6.5%
CC1(C)CC(NS(=O)(=O)c2cccc(Cl)c2O)c2ccc(F)cc2O1 (stereo not drawn)  DLS scattered light intensity (colloidal aggregate formation, dynamic light scattering; 50 mM potassium phosphate buffer; 200 µM, pH 7.0, 1% DMSO; higher = more aggregation): 4.84e+06 counts/s
CC(C)(Sc1ccncc1-c1ccc(C#N)c2ccccc12)C(=O)O  fraction excreted in urine (0-24 h) (human, urine; oral, 5 mg, with: febuxostat 0 mg): 1.74%
CNC(=O)c1ccc(-c2cnc3ncc(Cc4ccc5ncccc5c4)n3n2)cc1F  vessel puncture site haematoma incidence (healthy human subjects; oral, 200 mg, all grades, all causality, with: itraconazole 200 mg/day): 7.4%
C[C@@H]1CN(c2c(F)c(N)c3c(=O)c(C(=O)O)cn(C4CC4)c3c2F)C[C@H](C)N1  QTc interval (male Hartley guinea pig, anaesthetized; intravenous, 3 mg/kg, baseline before infusion): 333 ± 1.1 ms
Cc1ccc2cccc(C(=O)O)c2c1  HC50 (haemolysis; sheep erythrocytes; 1 h, pH 7.5): > 128 µg/mL
O=S(=O)(Nc1c(Cl)ccc2c1OCO2)c1cc(Cl)cc(Cl)c1O  DLS scattered light intensity (colloidal aggregate formation, dynamic light scattering; 50 mM potassium phosphate buffer; 200 µM, pH 7.0, 1% DMSO; higher = more aggregation): 1.32e+07 counts/s
C=CC(=O)N(C)CCOc1c(N)ncnc1-c1cc(F)cc(NC(=O)c2ccc(C3CC3)cc2F)c1C  AUC (human, whole blood; oral, 200 mg twice daily, day 1): 464 ng·h/mL
CC1CC1(C(=O)O)C(=O)NCc1cc(Cl)c2c(c1)OCCCO2 (stereo not drawn)  DLS scattered light intensity (colloidal aggregate formation, dynamic light scattering; 50 mM potassium phosphate buffer; 200 µM, pH 7.0, 1% DMSO; higher = more aggregation): 713000 counts/s
CCCCc1ccc(C#Cc2ccc(OCC)cc2)cc1  concentration (refers to: compound; human pregnant women, male fetuses, cord serum; dose not given, paired maternal-cord samples, mean): 0.56 ng/mL
O=C(Nc1nc2cccc(-c3ccc(CN4CCS(=O)(=O)CC4)cc3)n2n1)C1CC1  patients with triglycerides increased (rheumatoid arthritis patients; oral, 300 mg once daily, 4 weeks, regardless of relatedness): 0%
Cc1nc(-c2ccc(OCC(C)C)c(C#N)c2)sc1C(=O)O  body weight (KM mouse, chronic hyperuricaemia model; dose not given, day 0): 23.8 g and 24.2 g and 24.8 g and 25 g and 24.4 g and 25.8 g
C[C@@H]1COCCN1c1cc(C2([S@](C)(=N)=O)CC2)nc(-c2cc[nH]c3nccc2-3)n1  Pyrexia incidence (Japanese advanced solid tumour patients; oral, 240 mg twice daily, CTCAE grade ≥3): 0%
CNC(=O)c1cc(Oc2ccc(NC(=O)Nc3ccc(Cl)c(C(F)(F)F)c3)cc2)cc[n+]1[O-]  AUC(0-7.5 h) (mouse, Oatp1b2 knockout, plasma; oral, 10 mg/kg, geometric mean, with: rifampin 20 mg/kg iv): 200 ng·h/mL
FC(F)(F)c1ccc(CNc2ccc(Cc3c[nH]c4ncc(Cl)cc34)cn2)cn1  dry mouth incidence (patients with advanced solid tumours; oral, 1000 mg/day, non-TGCT cohort, all grades): 4%
Nc1nc2c(nc([N+](=O)[O-])n2[C@@H]2O[C@H](CO)[C@@H](O)[C@H]2O)c(=O)[nH]1  nucleoside remaining fraction (depurination, RP-HPLC; citrate-phosphate buffer 0.5 mM; 1360 min, pH 2, 37 °C): 0.0496
O=C(O)CC[C@H](NC(=O)N[C@@H](CCCCNC(=O)[C@H](Cc1ccc2ccccc2c1)NC(=O)[C@H]1CC[C@H](CNC(=O)CN2CCN(CC(=O)O)CCN(CC(=O)O)CCN(CC(=O)O)CC2)CC1)C(=O)O)C(=O)O  tumour-to-tissue ratio (male BALB/c nude mice, LS174T-PSMA xenografts, spleen; intravenous, 0.3 nmol, 2 h, radiolabelled (111In or 99mTc); baseline: tumour over spleen): 43.5 ± 25
O=C(O)CCC(=O)O.[2H]C([2H])([2H])Oc1cc(C)c2[nH]ccc2c1CN1CC[C@@H](C2CC2)C[C@H]1c1ccc(C(=O)O)cc1  subjects with elevated uric acid (healthy Chinese subjects; oral, 600 mg, single ascending dose): 0%
COc1ccc2c(c1)CN(C(=O)CCN1CCC(Cc3ccccc3)CC1)CC[S@@+]2[O-]  urinary excretion (healthy male volunteers, urine; intravenous, 0.6 mg/kg; baseline: dose): 9.08%
NC1(C(=O)N[C@@H](CCO)c2ccc(Cl)cc2)CCN(c2nc[nH]c3nccc2-3)CC1  incidence of Hyper-glycaemia (metastatic CRPC patients; 400 mg b.i.d., any grade, treatment-related, with: enzalutamide 160 mg daily): 28.6%
O=C1NCCc2nc(OCc3cccc(F)c3)ccc21  Irwin test score (refers to: Lacrimation; Sprague-Dawley rat male; oral, 100 mg/kg, 4 h; direction not given): 0
Cn1c(C(F)(F)F)cc(=O)n(-c2cc(Oc3cccnc3OCC(=O)O)c(Cl)cc2F)c1=O  AUC(0-24 h) (Crl:CD(SD) rats, male, plasma; oral diet, 50 ppm in diet, day 1, 90-day toxicity study): 1020 ng·h/mL
CCc1cc(C(=O)NC)c2nccc(N3CCc4c(cc(Cn5ccnc5)cc4-c4cn(C)nc4C(F)(F)F)C3=O)c2c1  change in clinical chemistry or haematology parameter (refers to: Eos; Sprague Dawley rat; oral, 100 mg/kg once daily, 7 days; baseline: vehicle): -44.1%
Cc1cnc(N2CC3(CCOCC3)C2)c(C(=O)Nc2ccc(C(=O)N3CCc4cc(C(=O)Nc5c(C)cccc5F)sc4-c4ccccc43)cc2)c1  concentration (human, nasal mucosal lining fluid; inhaled, 5 mg twice daily, 60 h): 9900 ng/mL
O=C(O)c1cccc(C(=O)O)c1  apparent dissolution enthalpy (betaine/ethylene glycol DES-water; DES mass fraction 0.60): 2.82 kcal/mol
